Measured values pooled from the literature.
± gives the spread as reported. Values after ≈ are worked out from the molar mass of the structure shown.
UniProt Q13237, sequence (whole entry, looked up): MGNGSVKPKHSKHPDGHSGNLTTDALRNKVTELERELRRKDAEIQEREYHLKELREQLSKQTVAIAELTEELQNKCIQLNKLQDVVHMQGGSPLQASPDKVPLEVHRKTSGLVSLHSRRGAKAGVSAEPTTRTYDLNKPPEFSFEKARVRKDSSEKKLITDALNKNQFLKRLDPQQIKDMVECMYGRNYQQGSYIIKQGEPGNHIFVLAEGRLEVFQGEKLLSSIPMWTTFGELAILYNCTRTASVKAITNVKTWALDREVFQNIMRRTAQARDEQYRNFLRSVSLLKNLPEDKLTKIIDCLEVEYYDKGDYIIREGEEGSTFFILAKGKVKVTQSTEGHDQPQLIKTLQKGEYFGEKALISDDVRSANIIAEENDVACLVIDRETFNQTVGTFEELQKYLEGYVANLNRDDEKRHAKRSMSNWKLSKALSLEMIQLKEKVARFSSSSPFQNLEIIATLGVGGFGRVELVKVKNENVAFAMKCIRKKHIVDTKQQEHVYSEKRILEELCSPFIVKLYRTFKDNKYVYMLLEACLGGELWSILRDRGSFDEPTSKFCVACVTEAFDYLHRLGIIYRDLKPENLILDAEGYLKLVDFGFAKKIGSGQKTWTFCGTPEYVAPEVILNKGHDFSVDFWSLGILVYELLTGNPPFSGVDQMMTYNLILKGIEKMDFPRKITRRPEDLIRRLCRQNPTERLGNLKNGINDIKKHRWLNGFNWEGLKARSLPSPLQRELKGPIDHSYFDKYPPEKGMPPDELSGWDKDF
UniProt Q01726, sequence (whole entry, looked up): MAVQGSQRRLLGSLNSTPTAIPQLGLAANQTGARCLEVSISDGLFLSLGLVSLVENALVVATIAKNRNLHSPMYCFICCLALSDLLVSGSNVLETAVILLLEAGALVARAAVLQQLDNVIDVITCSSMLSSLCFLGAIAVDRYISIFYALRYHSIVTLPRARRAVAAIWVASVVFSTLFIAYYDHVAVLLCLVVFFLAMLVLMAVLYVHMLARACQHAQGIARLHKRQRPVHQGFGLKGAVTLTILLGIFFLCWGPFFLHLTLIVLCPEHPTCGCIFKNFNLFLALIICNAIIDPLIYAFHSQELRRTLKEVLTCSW
UniProt Q99788, sequence (whole entry, looked up): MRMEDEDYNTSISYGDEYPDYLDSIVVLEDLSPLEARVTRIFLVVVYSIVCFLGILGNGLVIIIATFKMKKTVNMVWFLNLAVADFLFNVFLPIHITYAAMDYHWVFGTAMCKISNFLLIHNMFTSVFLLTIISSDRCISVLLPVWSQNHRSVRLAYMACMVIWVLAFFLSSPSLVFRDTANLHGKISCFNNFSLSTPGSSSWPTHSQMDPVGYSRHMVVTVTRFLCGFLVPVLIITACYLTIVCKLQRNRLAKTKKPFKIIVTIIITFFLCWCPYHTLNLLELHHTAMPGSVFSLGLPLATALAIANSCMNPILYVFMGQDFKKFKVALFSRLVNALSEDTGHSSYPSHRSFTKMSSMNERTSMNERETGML

SMILES | tested on | assay | test system | conditions | scale | measurement | result
CC[C@H](C)[C@H](NC(=O)[C@H](C)NC(=O)[C@H](CCCCN)NC(=O)[C@H](CC(C)C)NC(=O)[C@H](C)NC(=O)[C@@H](NC(=O)[C@H](Cc1c[nH]cn1)NC(=O)[C@H](CC(C)C)NC(=O)[C@@H](NC(=O)[C@@H](NC(=O)[C@H](CCCCN)NC(=O)[C@H](C)NC(=O)[C@H](C)NC(=O)[C@H](CO)NC(=O)[C@H](CCCCN)NC(=O)[C@H](Cc1ccccc1)NC(=O)[C@@H](NC(=O)[C@H](CCCCN)NC(=O)[C@H](CC(C)C)NC(=O)[C@H](Cc1ccccc1)NC(=O)[C@H](CO)NC(=O)[C@H](CCCCN)NC(=O)[C@H](Cc1c[nH]c2ccccc12)NC(=O)[C@H](CCCCN)NC(C)=O)[C@@H](C)O)[C@@H](C)O)C(C)C)[C@@H](C)O)C(=O)N[C@@H](CO)C(=O)N[C@@H](CO)C(N)=O | Klebsiella pneumoniae | – | ATCC 1705 | – | – | MIC range | 16 µg/mL (≈ 5.45 µM)
C[C@@H](O)[C@@H](CO)NC(=O)[C@@H](CCCNC(=N)N)NC(=O)[C@@H]1CCCN1C(=O)[C@@H]1CSSC[C@H](NC(=O)[C@H](Cc2ccccc2)NC(=O)CN2CCN(CC(=O)O)CCN(CC(=O)O)CCN(CC(=O)O)CC2)C(=O)N[C@@H](Cc2ccc(O)cc2)C(=O)N[C@@H](Cc2ccccc2)C(=O)N[C@@H](CCC(N)=O)C(=O)N[C@@H](CC(N)=O)C(=O)N1 [gallium-68 labelled] | – | – | healthy Wistar rat, lungs | intravenous, 8 MBq, 60 min, individual animals | – | tissue uptake | 0.51 %ID/g
CN1CCN(C2(CNC3CCN(c4cccc(-c5cc6cc(F)ccc6[nH]5)c4)CC3)CCC2)CC1 | DU-145 | – | – | – | – | CC50 | 5.45 µM
COc1c(CCC[P+](c2ccccc2)(c2ccccc2)c2ccccc2)cc2c(c1OC)OCO2.[I-] | UACC-257 | SRB | – | – | – | TGI | -5.36 log M
CS(=O)(=O)c1ccc(-c2nnc(/C=C/c3nnc(-c4ccc(C#N)cc4)o3)n2-c2ccccc2Cl)nc1 | – | RNA-seq GSEA, item: HALLMARK_BILE_ACID_METABOLISM | organoids, small intestinal, Apc Q1405X, mouse | dose not given, 3 days, wild-type organoids | baseline: DMSO, direction not given | normalized enrichment score | 1.89
c1ccc(C(NCCNC(c2ccccc2)c2ccccc2)c2ccccc2)cc1 | AMPA receptor, rat | binding | – | 10 µM, Eurofins selectivity panel | – | inhibition | -13%
CCCCC1(CCCC)CN(c2ccccc2)c2cc(SC)c(OCC(=O)N[C@@H](C(=O)NCC(=O)O)c3ccccc3)cc2S(=O)(=O)C1 | – | item: HDL cholesterol | human, serum | 20 mg once daily, day 9 | – | serum HDL-C | 52.6 mg/dL
C[C@H](C(=O)N[C@H]1COc2ccccc2[C@@H]1S(C)(=O)=O)c1ccc(F)cc1 | 5-HT2 receptor, rat | binding | – | 10 µM, Eurofins selectivity panel | – | inhibition | 8%
COc1ccc(N2C(=O)N(c3c(C)cccc3Cl)Cc3cnc(Nc4ccc(C5CCN(C)CC5)cc4OC)nc32)nc1 | cGMP-dependent protein kinase 2 (PRKG2, Homo sapiens, UniProt Q13237) | kinase activity | – | 0.5 µM | – | inhibition | 4%
CC(C)C[C@@H]1NC(=O)[C@H](CC(C)C)NC(=O)[C@H](Cc2c[nH]c3ccccc23)NC(=O)[C@H](CO)NC(=O)[C@H](Cc2c[nH]c3ccccc23)NC(=O)[C@@H]2CCCN2C(=O)[C@H](CC(C)C)NC(=O)[C@H](Cc2c[nH]cn2)NC(=O)[C@@H]2CCCN2C(=O)[C@H](CC(N)=O)NC(=O)[C@H](C)NC(=O)[C@H](Cc2ccc(O)cc2)NC(=O)[C@H](CS)NC(=O)[C@H](CCCCNC(=O)CN2CCN(CC(=O)O)CCN(CC(=O)O)CCN(CC(=O)O)CC2)NC1=O [lutetium-177 labelled] | – | OLINDA dosimetry | BALB/c mice, intestine | 37 MBq, 7 days | – | total nuclear transformations | 318 MBq-s
C[C@H]1CN(c2n[nH]c3nc(N[C@H]4CC[C@H](NS(=O)(=O)CCC(F)(F)F)CC4)ncc23)CCO1 | Large ribosomal subunit protein uL5 (Homo sapiens, UniProt P62913) | Kinobeads competition, item: RPL11 | – | 0.16 µM, unit not given | baseline: vehicle | remaining binding | 1.19
C[C@@H](O)[C@H](NC(=O)[C@@H]1CSSC[C@H](NC(=O)[C@@H](Cc2ccccc2)NC(=O)CN2CCN(CC(=O)[O-])CCN(CC(=O)[O-])CCN(CC(=O)[O-])CC2)C(=O)N[C@@H](Cc2ccc(O)cc2)C(=O)N[C@H](Cc2c[nH]c3ccccc23)C(=O)N[C@@H](CCCCN)C(=O)N[C@@H]([C@@H](C)O)C(=O)N1)C(=O)O.[177Lu+3] | MEC1 treated with 100 µM zebularine | gamma counter | serum-free RPMI | 30 min, 37 °C | – | uptake | 0.842%
COc1cc(Nc2ncc(F)c(Nc3ccc4c(n3)NC(=O)C(C)(C)O4)n2)cc(OC)c1OC | Melanocyte-stimulating hormone receptor (MC1R, Homo sapiens, UniProt Q01726) | – | – | – | – | IC50 | > 10 µM
COc1c(C)c2c(c(O)c1C/C=C(\C)CCC(=O)O)C(=O)OC2 | HL-60 | cell proliferation | blood cancer | – | – | IC50 | 0.257 µM
CC[C@H](C)[C@@H]1NC(=O)[C@@H]2CCCN2C(=O)[C@H](CC(C)C)NC(=O)[C@H](CC(C)C)NC(=O)CNC(=O)[C@@H](NC(=O)[C@@H](NC(=O)[C@H](CC(=O)O)NC(=O)CNC(=O)[C@@H](NC(=O)[C@H](C)NC(=O)CNC(=O)[C@H](CCCCN)NC(=O)[C@H](CC(C)C)NC(=O)[C@H](CC(C)C)NC(=O)[C@H](CCCCN)NC(=O)CNC(=O)[C@@H](NC(=O)[C@@H](N)CC(C)C)C(C)C)C(C)C)C(C)C)CSSC[C@@H](C(=O)O)NC1=O | – | RNA-seq, item: Alox5ap mRNA | mouse traumatic brain injury, frontal cortex and hippocampus | dose not given | baseline: TBI plus compound vs TBI | log2 fold change | -3.11
CC(C)N1CCC(NC2CCN(c3cccc(-c4cc5cc(F)ccc5[nH]4)c3)CC2)CC1 | SK-MEL-5 | – | – | – | – | CC50 | 5.46 µM
O=C(NNc1ccc(Cl)c(Cl)c1)c1nnc(C23CC4CC(CC(C4)C2)C3)o1 | Fusarium graminearum | fungal growth, inhibitor | – | 50 µg/mL | – | inhibition | 66.3 ± 0.8%
COc1ccc(-n2nc(C(C)=O)s/c2=N\N=C(/C)c2ccc(NC(C)=O)cc2)cc1 | HepG2 | – | – | 0.625 µM | – | toxicity | 94.8%
O=C(NNc1cccc(Cl)c1)c1nnc(C23CC4CC(CC(C4)C2)C3)o1 | Fusarium graminearum | fungal growth, inhibitor | – | 50 µg/mL | – | inhibition | 100%
COc1cc(CCC[P+](c2ccccc2)(c2ccccc2)c2ccccc2)c(OC)c2c1OCO2.[I-] | DU-145 | SRB | – | – | – | LC50 | > -4 log M
O=C(Nc1cccnn1)N1CCN([C@@H]2CCOc3cc(C(F)(F)F)ccc32)CC1 | PDE6 | enzyme activity | – | 20 µM | – | inhibition | 9%
Oc1ccc2c3c1O[C@H]1[C@@H](O)CC[C@@]4(O)[C@@H](C2)N(CC2CCC2)CC[C@]314 | Chemerin-like receptor 1 (CMKLR1, Homo sapiens, UniProt Q99788) | β-arrestin recruitment, TANGO luminescence | – | concentration not given | baseline: basal luminescence | log2 fold change | 0.533
CN1CCN(S(=O)(=O)c2cc([N+](=O)[O-])ccc2N(CCOS(C)(=O)=O)CCOS(C)(=O)=O)CC1 | – | – | NSG mice, sample DB PDX | intraperitoneal, 25 mg/kg weekly x3 | baseline: vehicle | EFS delay (T-C) | 49 days
C/C=C(/C)C(=O)O[C@H]1C(C)=C2[C@H]([C@@H]1OC(=O)CCCCCCC)[C@@](C)(OC(C)=O)C[C@H](OC(=O)CCC)[C@@]1(O)[C@H]2OC(=O)[C@@]1(C)O | HEK293T | RNA-seq, item: HSPD1 mRNA | – | 10 µM, 6 h | baseline: vehicle | log2 fold change | -0.0197
CC[C@H](C)[C@H](NC(=O)[C@H](Cc1ccccc1)NC(=O)[C@H](CCC(=O)O)NC(=O)[C@H](CCCNC(=N)N)NC(=O)[C@H](C)NC(=O)[C@H](C)NC(=O)[C@H](CCC(N)=O)NC(=O)[C@H](CCC(=O)O)NC(=O)[C@H](CCC(=O)O)NC(=O)[C@H](CC(C)C)NC(=O)[C@H](Cc1ccc(O)cc1)NC(=O)[C@H](CO)NC(=O)[C@H](CO)NC(=O)[C@@H](NC(=O)[C@H](CC(=O)O)NC(=O)[C@H](CO)NC(=O)[C@@H](NC(=O)[C@H](Cc1ccccc1)NC(=O)[C@@H](NC(=O)CNC(=O)[C@H](CCC(=O)O)NC(=O)[C@H](C)NC(=O)CCc1c[nH]cn1)[C@@H](C)O)[C@@H](C)O)C(C)C)C(=O)N[C@@H](C)C(=O)N[C@@H](Cc1c[nH]c2ccccc12)C(=O)N[C@@H](CC(C)C)C(=O)N[C@H](C(=O)N[C@@H](CCCNC(=N)N)C(=O)NCC(=O)N[C@@H](CCCNC(=N)N)C(=O)N[C@@H](CCCCNC(=O)COCCOCCNC(=O)COCCOCCNC(=O)CC[C@H](NC(=O)CCCCCCCCCCCCCCCCC(=O)O)C(=O)O)C(=O)NCC(=O)NCC(=O)N[C@@H](CO)C(=O)N[C@@H](CCCCNc1c(NCCCCCN(O)C(=O)CCC(=O)NCCCCCN(O)C(=O)CCC(=O)NCCCCCN(O)C(C)=O)c(=O)c1=O)C(=O)O)C(C)C [zirconium-89 labelled] | – | – | rat, liver | sc, 3 nmol/kg, 72 h, ex vivo | – | tissue uptake | 0.64 %ID/g

A few entries again:
SMILES | tested on | assay | test system | conditions | scale | measurement | result
CC(C)C[C@@H]1NC(=O)[C@H](CC(C)C)NC(=O)[C@H](Cc2c[nH]c3ccccc23)NC(=O)[C@H](CO)NC(=O)[C@H](Cc2c[nH]c3ccccc23)NC(=O)[C@@H]2CCCN2C(=O)[C@H](CC(C)C)NC(=O)[C@H](Cc2c[nH]cn2)NC(=O)[C@@H]2CCCN2C(=O)[C@H](CC(N)=O)NC(=O)[C@H](C)NC(=O)[C@H](Cc2ccc(O)cc2)NC(=O)[C@H](CS)NC(=O)[C@H](CCCCNC(=O)CN2CCN(CC(=O)O)CCN(CC(=O)O)CCN(CC(=O)O)CC2)NC1=O [lutetium-177 labelled] | – | OLINDA dosimetry | BALB/c mice, intestine | 37 MBq, 7 days | – | total nuclear transformations | 318 MBq-s
Oc1ccc2c3c1O[C@H]1[C@@H](O)CC[C@@]4(O)[C@@H](C2)N(CC2CCC2)CC[C@]314 | Chemerin-like receptor 1 (CMKLR1, Homo sapiens, UniProt Q99788) | β-arrestin recruitment, TANGO luminescence | – | concentration not given | baseline: basal luminescence | log2 fold change | 0.533
C[C@H](C(=O)N[C@H]1COc2ccccc2[C@@H]1S(C)(=O)=O)c1ccc(F)cc1 | 5-HT2 receptor, rat | binding | – | 10 µM, Eurofins selectivity panel | – | inhibition | 8%
